Measured values pooled from the literature.
Numbered parts are unrelated; each lists some results of a single study.
UniProt P22612, sequence (whole entry, looked up): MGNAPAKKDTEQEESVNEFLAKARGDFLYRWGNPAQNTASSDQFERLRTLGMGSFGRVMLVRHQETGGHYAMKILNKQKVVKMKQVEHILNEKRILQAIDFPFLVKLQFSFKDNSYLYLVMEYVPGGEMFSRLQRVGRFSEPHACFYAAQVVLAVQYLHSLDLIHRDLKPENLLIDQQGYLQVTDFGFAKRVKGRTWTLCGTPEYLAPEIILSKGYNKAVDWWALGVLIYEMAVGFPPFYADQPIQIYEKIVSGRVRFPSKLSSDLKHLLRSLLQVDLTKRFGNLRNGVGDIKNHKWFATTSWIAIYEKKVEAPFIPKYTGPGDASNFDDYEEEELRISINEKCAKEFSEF
UniProt Q13554, sequence (whole entry, looked up): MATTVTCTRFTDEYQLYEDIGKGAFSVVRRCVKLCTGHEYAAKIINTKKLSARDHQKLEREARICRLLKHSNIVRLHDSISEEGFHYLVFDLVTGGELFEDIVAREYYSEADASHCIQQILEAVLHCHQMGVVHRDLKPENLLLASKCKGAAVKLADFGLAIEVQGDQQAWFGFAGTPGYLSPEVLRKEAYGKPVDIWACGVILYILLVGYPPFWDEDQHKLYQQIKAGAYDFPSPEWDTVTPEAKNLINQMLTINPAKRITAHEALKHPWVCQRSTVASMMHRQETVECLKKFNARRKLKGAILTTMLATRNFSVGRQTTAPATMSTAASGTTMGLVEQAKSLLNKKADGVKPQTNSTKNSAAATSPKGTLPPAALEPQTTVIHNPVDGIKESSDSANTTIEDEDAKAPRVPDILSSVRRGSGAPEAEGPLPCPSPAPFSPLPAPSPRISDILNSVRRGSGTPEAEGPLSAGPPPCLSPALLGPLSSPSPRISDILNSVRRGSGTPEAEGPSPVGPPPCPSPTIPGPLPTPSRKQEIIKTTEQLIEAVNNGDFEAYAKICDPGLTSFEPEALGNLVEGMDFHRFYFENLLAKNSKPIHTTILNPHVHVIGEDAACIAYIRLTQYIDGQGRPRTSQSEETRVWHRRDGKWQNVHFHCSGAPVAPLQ
UniProt Q16816, sequence (whole entry, looked up): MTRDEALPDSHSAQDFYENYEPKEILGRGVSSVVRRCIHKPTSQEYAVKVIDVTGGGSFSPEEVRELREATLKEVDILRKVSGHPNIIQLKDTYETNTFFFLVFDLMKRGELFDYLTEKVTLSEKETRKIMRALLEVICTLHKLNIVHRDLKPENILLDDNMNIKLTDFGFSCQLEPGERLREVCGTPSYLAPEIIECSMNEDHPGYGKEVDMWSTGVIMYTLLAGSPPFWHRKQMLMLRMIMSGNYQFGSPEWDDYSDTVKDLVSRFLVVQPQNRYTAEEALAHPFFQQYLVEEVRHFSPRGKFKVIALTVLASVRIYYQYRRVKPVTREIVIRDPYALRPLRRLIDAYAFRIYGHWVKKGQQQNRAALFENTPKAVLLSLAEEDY
UniProt O15530, sequence (whole entry, looked up): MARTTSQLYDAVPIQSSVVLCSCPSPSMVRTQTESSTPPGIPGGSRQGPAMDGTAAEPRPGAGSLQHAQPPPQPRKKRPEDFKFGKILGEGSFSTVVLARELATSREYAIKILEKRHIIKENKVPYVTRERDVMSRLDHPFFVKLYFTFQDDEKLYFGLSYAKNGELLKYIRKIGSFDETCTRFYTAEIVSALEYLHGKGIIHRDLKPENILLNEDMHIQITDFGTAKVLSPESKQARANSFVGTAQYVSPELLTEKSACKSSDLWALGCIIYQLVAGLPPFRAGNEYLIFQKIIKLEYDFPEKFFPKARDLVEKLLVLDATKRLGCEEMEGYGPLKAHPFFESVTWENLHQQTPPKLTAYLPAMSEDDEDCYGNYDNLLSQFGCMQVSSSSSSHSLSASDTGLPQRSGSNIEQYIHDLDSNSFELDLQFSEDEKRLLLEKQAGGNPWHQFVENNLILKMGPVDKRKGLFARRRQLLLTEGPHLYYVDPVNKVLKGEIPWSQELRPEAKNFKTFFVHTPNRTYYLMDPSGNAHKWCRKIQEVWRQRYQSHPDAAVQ
UniProt P21709, sequence (whole entry, looked up): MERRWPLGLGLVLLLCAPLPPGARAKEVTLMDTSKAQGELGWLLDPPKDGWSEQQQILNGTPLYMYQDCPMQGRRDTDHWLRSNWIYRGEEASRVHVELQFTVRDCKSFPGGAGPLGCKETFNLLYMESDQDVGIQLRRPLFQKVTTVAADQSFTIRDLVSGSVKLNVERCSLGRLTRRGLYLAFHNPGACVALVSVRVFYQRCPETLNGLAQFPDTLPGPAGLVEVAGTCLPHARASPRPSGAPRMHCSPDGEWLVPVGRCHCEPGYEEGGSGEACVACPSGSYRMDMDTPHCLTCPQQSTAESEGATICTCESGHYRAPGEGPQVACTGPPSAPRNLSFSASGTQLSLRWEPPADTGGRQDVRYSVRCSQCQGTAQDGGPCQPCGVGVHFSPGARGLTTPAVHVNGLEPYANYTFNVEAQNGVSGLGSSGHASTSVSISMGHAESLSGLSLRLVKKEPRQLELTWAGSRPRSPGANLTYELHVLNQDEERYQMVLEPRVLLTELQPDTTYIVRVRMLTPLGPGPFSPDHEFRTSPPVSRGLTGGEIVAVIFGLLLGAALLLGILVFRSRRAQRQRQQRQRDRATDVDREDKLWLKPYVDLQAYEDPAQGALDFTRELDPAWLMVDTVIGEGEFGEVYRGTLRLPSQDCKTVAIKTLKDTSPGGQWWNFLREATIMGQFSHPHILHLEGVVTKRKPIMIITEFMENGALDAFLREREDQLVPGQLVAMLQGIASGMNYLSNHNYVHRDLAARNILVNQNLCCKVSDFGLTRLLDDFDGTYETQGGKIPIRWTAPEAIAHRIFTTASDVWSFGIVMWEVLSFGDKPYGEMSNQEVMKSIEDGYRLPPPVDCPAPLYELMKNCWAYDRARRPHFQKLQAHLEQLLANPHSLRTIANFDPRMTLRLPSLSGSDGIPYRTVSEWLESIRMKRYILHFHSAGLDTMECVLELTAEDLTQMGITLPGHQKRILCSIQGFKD
UniProt Q96PF2, sequence (whole entry, looked up): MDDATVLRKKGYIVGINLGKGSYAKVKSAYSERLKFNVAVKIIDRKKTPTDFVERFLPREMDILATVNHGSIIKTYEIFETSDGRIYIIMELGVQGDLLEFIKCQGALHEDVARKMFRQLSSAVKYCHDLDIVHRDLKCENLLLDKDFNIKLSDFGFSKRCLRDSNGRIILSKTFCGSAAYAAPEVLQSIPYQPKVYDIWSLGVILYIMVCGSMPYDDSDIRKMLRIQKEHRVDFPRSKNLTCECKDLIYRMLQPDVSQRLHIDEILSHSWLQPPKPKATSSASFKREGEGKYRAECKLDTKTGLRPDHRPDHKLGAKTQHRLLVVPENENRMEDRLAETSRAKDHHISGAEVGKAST
UniProt Q9UK32, sequence (whole entry, looked up): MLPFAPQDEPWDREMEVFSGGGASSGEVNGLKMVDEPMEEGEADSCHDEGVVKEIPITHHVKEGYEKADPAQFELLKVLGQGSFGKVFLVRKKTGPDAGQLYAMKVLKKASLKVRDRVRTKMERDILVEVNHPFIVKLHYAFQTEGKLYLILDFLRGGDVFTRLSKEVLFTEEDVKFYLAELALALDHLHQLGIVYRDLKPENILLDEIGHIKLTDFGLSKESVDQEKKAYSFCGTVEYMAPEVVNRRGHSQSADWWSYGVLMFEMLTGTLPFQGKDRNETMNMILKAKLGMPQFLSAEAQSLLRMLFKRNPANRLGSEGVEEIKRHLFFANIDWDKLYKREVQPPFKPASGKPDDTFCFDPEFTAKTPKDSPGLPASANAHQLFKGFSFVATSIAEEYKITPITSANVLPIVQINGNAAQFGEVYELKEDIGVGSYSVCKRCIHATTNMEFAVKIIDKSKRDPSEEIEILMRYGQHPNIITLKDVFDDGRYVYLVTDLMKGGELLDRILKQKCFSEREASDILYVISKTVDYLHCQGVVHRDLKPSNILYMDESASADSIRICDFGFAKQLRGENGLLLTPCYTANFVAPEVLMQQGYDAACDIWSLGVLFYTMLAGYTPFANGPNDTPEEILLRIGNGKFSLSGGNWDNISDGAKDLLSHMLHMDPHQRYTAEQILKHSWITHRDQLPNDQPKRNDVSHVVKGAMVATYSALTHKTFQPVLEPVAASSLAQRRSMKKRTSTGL
UniProt Q16832, sequence (whole entry, looked up): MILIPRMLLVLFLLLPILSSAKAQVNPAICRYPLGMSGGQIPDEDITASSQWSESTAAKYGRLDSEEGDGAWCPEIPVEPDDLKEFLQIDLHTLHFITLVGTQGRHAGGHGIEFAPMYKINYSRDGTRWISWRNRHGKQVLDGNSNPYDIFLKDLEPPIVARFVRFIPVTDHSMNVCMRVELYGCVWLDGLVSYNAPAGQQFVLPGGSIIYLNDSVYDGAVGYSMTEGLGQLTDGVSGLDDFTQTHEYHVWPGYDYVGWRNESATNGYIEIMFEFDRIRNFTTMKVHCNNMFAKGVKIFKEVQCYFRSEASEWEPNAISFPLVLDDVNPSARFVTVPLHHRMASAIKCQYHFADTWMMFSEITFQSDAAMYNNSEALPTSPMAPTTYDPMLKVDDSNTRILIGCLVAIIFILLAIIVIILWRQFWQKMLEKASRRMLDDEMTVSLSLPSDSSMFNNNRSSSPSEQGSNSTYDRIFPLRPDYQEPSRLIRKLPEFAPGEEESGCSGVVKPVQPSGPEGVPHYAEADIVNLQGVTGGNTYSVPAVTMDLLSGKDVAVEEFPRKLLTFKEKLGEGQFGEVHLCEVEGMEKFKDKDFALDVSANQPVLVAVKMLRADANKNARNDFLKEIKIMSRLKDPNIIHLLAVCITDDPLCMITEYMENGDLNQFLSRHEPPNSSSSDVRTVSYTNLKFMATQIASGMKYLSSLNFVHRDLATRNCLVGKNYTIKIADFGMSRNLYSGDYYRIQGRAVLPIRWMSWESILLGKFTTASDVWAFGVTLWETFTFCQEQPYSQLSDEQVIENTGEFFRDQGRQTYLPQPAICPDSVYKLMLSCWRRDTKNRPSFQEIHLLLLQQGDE

Study 1
SMILES: c1ccc(N2CCN(Cc3nc4ccccc4[nH]3)CC2)nc1
Method: competition with immobilised ligand
Concentration: 1 µM
target	test	remaining binding
STK11 (Homo sapiens, UniProt Q15831)	binding	70%
MAST1 (Homo sapiens, UniProt Q9Y2H9)	binding	65%
DDR2 (Homo sapiens, UniProt Q16832)	cell-free assay	100%
RET (Homo sapiens, UniProt P07949, M918T)	cell-free assay	100%
FLT3 (Homo sapiens, UniProt P36888, K663Q)	binding	100%
EGFR (Homo sapiens, UniProt P00533, del747-752/P753S)	cell-free assay	100%
FLT3 (Homo sapiens, UniProt P36888, D835H)	binding	100%
CLK1 (Homo sapiens, UniProt P49759)	binding	100%
CAMK1 (Homo sapiens, UniProt Q14012)	cell-free assay	100%
EPHB2 (Homo sapiens, UniProt P29323)	cell-free assay	98%
PIP4K2B (Homo sapiens, UniProt P78356)	cell-free assay	100%
BMP2K (Homo sapiens, UniProt Q9NSY1)	binding	100%
MAP3K1 (Homo sapiens, UniProt Q13233)	binding	99%
LTK (Homo sapiens, UniProt P29376)	cell-free assay	100%
PDGFRB (Homo sapiens, UniProt P09619)	cell-free assay	100%
KIT (Homo sapiens, UniProt P10721, D816H)	binding	100%
PAK1 (Homo sapiens, UniProt Q13153)	cell-free assay	94%
EPHA1 (Homo sapiens, UniProt P21709)	cell-free assay	100%
LYN (Homo sapiens, UniProt P07948)	cell-free assay	100%
SGK2 (Homo sapiens, UniProt Q9HBY8)	binding	100%
SNRK (Homo sapiens, UniProt Q9NRH2)	binding	100%
EIF2AK2 (Homo sapiens, UniProt P19525)	binding	100%
ACVR2B (Homo sapiens, UniProt Q13705)	binding	100%
MAPK9 (Homo sapiens, UniProt P45984)	binding	100%
CLK2 (Homo sapiens, UniProt P49760)	binding	89%

Study 2
SMILES: COc1cccc(-c2cc(=O)c3ccccc3o2)c1N
Observed: enzyme activity
Action: inhibitor
Concentration: 0.5 µM
Reference: control
target	remaining activity
PDPK1 (Homo sapiens, UniProt O15530)	98.3%
Cyclin-dependent kinase 4, with cyclin D3 (CDK4, Homo sapiens, UniProt P11802)	101%
DYRK3 (Homo sapiens, UniProt O43781)	90.3%
PHKG1 (Homo sapiens, UniProt Q16816)	92.9%
Cyclin-dependent kinase 1, with cyclin B (CDK1, Homo sapiens, UniProt P06493)	99.8%
RPS6KA5 (Homo sapiens, UniProt O75582)	96.4%
STK17A (Homo sapiens, UniProt Q9UEE5)	96.9%
EPHB4 (Homo sapiens, UniProt P54760)	101%
WNK3 (Homo sapiens, UniProt Q9BYP7)	96.3%
BLK (Homo sapiens, UniProt P51451)	107%
HIPK4 (Homo sapiens, UniProt Q8NE63)	98.6%
CAMK2B (Homo sapiens, UniProt Q13554)	103%
TSSK2 (Homo sapiens, UniProt Q96PF2)	79.7%
ABL1 (Homo sapiens, UniProt P00519)	93.9%
HIPK2 (Homo sapiens, UniProt Q9H2X6)	116%
EPHB1 (Homo sapiens, UniProt P54762)	88%
STK16 (Homo sapiens, UniProt O75716)	95.4%
MAP4K4 (Homo sapiens, UniProt O95819)	97.2%
AXL (Homo sapiens, UniProt P30530)	127%
SRMS (Homo sapiens, UniProt Q9H3Y6)	104%
EPHA4 (Homo sapiens, UniProt P54764)	98%
RPS6KA6 (Homo sapiens, UniProt Q9UK32)	95.2%
Cyclin-dependent kinase 6, with cyclin D3 (CDK6, Homo sapiens, UniProt Q00534)	99.3%
PRKACG (Homo sapiens, UniProt P22612)	96%
MAPKAPK3 (Homo sapiens, UniProt Q16644)	88.1%

Study 3
Species: human
Medium: microsomes or S9
Concentration: 2 µM
Time: 0.5 h
Structure (SMILES)	remaining compound
COc1c(NC(=O)c2ccc[nH]2)cc(Cl)cc1C(=O)N(C)C	107%
CC1CC(N(C(=O)Nc2ccccc2)c2ccccc2)c2ccccc2N1C(=O)c1ccco1 (centres unmarked)	1.28%
CCC(Oc1ccccc1F)C(=O)Nc1c(C)cccc1C (centres unmarked)	4.89%
Cc1ccn(S(=O)(=O)c2cc(C)c(C)cc2Br)n1	7.39%
Cc1nc(-c2cc(C(=O)OCc3cc(F)cc4c3OCOC4)n(C)c2)cs1	10.1%
COc1nccc(CNc2nn(C)cc2Cl)c1F	> 100%

Study 4
SMILES: CC(C)n1cnc(-c2ccc(F)cc2)c1-c1ncc(C(=O)Nc2ccc(N3CCN(C)CC3)cc2)[nH]1
test	test system	conditions	patients with adverse event [%]
Phase 2a trial, item: hyperlipidaemia	human, idiopathic pulmonary fibrosis	30 mg once daily, grade 4	0
Phase 2a trial, item: hypokalaemia	human, idiopathic pulmonary fibrosis	30 mg once daily, grade 4	0
Phase 2a trial, item: hypokalaemia	human, idiopathic pulmonary fibrosis	30 mg once daily, grade 5	0
Phase 2a trial, item: eosinophilia myalgia syndrome	human, idiopathic pulmonary fibrosis	60 mg once daily, grade 3	0
item: periorbital oedema, grade 5	idiopathic pulmonary fibrosis patients	dose not given, all compound arms pooled	0
Phase 2a trial, item: hypertriglyceridaemia	human, idiopathic pulmonary fibrosis	all compound arms total, grade 2	0
Phase 2a trial, item: haemorrhoids	human, idiopathic pulmonary fibrosis	60 mg once daily, grade 4	0
Phase 2a trial, item: haemorrhoids	human, idiopathic pulmonary fibrosis	60 mg once daily, grade 2	0
Phase 2a trial, item: hypoalbuminaemia	human, idiopathic pulmonary fibrosis	60 mg once daily, grade 2	0
